Experimental data of several laboratories.
Numbered parts are unrelated; each lists some results of a single study.

Sample 1 — method: RNA Bind-n-Seq; form: RNA; sample: in vitro; tested at: 200 nM; setting: whole 134-nt RNA, ends assumed; with: 150 mM LiCl; baseline: input library; direction: higher = stronger binding; all molecules: 7-deaza-guanosine replaces G
Target: Fragile X messenger ribonucleoprotein 1, C-terminal low-complexity region (Fmr1, Mus musculus, UniProt P35922)
With `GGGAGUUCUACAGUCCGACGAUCACCAUGCAGGUGGGCAUCUUUGGGAAGAAAGGCAAGGGGGGGAUAGGGAGGGGGGUAACACUUUGGGAACAGGUGGUCCCAGGUCGUUUCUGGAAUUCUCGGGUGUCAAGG` the log2 enrichment was 1.32.
For `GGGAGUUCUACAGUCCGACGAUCGUCCUGUGCUACACAUCGUAUGUACCGAAUCGGGAAAGGGUUUUUUUGGGUUUUUGGGAAAGUAUUAUGUUACGCCGUUCGGAUCUGCACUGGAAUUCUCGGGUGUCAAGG`, the log2 enrichment was -2.18.
For `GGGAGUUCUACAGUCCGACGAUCAAGUCCUGUGCUACACAUCGUAUGUACCGAAUCGGGGUUUGGUUUGGGGUUUGGGGAAAGUAUUAUGUUACGCCGUUCGGAUCUGCACUUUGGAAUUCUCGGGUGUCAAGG`, the log2 enrichment was -1.85.
`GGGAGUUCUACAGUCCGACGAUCCCUCAAGUCCUGUGCUACACAUCGUAUGUACCGAAUCGGUUUUUGGUGGAGGAAAGUAUUAUGUUACGCCGUUCGGAUCUGCACUUCCAGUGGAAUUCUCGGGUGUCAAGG` gave a log2 enrichment of -0.012.
For `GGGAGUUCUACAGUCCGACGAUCUAGCUUUAGAGGAGGAUCUGAUGGAUAUGGCAGUGGACGUGGAUUUGGGGAUGGCUAUAAUGGGUAUGGAGGAGGACCUGGAGGUGGCAAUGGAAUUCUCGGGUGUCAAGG`, the log2 enrichment was 0.168.
With `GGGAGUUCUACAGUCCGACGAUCUCCUCAAGUCCUGUGCUACACAUCGUAUGUACCGAAUCGGGGUGGUGGUGGGAAAGUAUUAUGUUACGCCGUUCGGAUCUGCACUUCCAGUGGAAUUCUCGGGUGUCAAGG` the log2 enrichment was -0.0734.
`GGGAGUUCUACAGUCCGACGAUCGCAGGAAGUAAAAACAAAUGGAAAUGCUUCGGAUAGUGGCAGGGGUGGGGGUUGCUAAGGAAAGGGUGGGAUGGGAGUGGGUAAAGACUUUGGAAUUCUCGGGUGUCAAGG` gave a log2 enrichment of 1.31.

Sample 2 — method: RNA Bind-n-Seq; form: RNA; sample: in vitro; tested at: 365 nM; baseline: no-protein control; direction: higher = stronger binding
Target: RNA binding protein fox-1 homolog 2, RRM domain, GST-SBP tag (RBFOX2, Homo sapiens, UniProt O43251-10, residues 100-194)
Setting: natural RNA segment, single round, ends assumed
`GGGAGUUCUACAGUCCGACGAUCAAAGCACUGAUCGUUCUCCAGUUCUUGCCAAGAUCAUCCCAAGUUGGAUAUCAUCAAAACUAUCUUUGUGCUCCCAAAACUUGGUGUUCAUGUGUAUCCCUUUAAGUUGUUGGAAUUCUCGGGUGCCAA` — result for “RBNS enrichment (R)”: 0.443.
For `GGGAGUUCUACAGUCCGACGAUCAGGAUCUUACAACACAGCAAGUAGCAUAGAGCUCUUUCCUUCCUCUUUUUUGGGGAGGUUGGGGUCAGGGGUUGUUUCUUUGAGAUUUAAGUUUUCAUUUUUGAGGGGUAUGGAAUUCUCGGGUGCCAA`, “RBNS enrichment (R)” read 0.673.
`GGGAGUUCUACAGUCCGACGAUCACACCCCUCCCCGCACUGUGAAGUUCCCCUGACCGCCCUCCUGGUUCACAAAGAGCAUUAAGAAAGCUGCGGUGGUCUGAGCAACAUAGCCCAAAGGGCUGAGCCUCCUGUGGAAUUCUCGGGUGCCAA` — result for “RBNS enrichment (R)”: 0.474.
`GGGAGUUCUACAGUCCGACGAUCCAGAUCUCAGUGGGUCACAUAACUUGCUUUACACUCAUCUUGUUGUGUCAGAAAUAAAGUGUUCGUGCUUUUCCUUGUCAGGAGUCCCGUGUUUGUCACUUGUUGUGUGGUGGAAUUCUCGGGUGCCAA` — result for “RBNS enrichment (R)”: 0.812.
`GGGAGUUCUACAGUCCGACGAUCAGACUCCAGCGAGUCUCGGGAAGCCCAGGGGACCUGUCACCAUCUGGGCACUUCCCAGGCUCAAUGCUCAGCCAGAGUUUGCUGGUGGACCUCAGGAUUCGAAGUGUGCAUGGAAUUCUCGGGUGCCAA` — result for “RBNS enrichment (R)”: 11.7.
`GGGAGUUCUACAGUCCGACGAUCAGAUGGAAUUACAGCAAAAUGUGCUCAAUGUAUGUGUCUGCUCACAACACUGGGAGAUGUGUUUGCCAGUAAGUUGCUCAUCACAAGAGCACCAGACUUGGGGGGUGUAAUGGAAUUCUCGGGUGCCAA`: “RBNS enrichment (R)” 0.453.
`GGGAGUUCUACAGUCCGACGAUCUUGUACAUCACACAGCCAUUUUUAUAUAAGGACACUUUUAAUAAGCUAUUUCAAAUUUGGUUUUGUUACAUUAAGUUGACUAUCAAAUACACAAAAGAUUUUUUUUGCAUUGGAAUUCUCGGGUGCCAA` — result for “RBNS enrichment (R)”: 0.485.

Sample 3 — method: protein-binding microarray; form: double-stranded DNA, one strand shown; sample: in vitro; tested at: 940 nM top; setting: 60-bp whole probe; with: salmon DNA 0.4 mg/ml; baseline: random background probes; direction: higher = stronger binding; all sequences stand within: GCCTAGCAC … GTCTTGATTCGCTTGACGCTGCTG
Target: Interferon regulatory factor 5, full length, phosphomimetic (IRF5, Homo sapiens, UniProt Q13568-2, residues 1-514, S451D/S453D/S456D/S462D)
Under “fitted relative affinity”, `ATATATATCATTTAATTATAGTGCTAG` is recorded as 0.464 z-score.
Under “fitted relative affinity”, `GACGATCTCCGTTTCGAGACGTGCTAG` is recorded as 1.25 z-score.
`TTAGATATCAGACTGGTTTAGTGCTAG`: “fitted relative affinity” 0.105 z-score.
`TTAGGTTTCGGTTCCGCTTAGTGCTAG` — result for “fitted relative affinity”: 14.2 z-score.
`TTAGATTTCGGAACTGGATTAGTGCTA` — result for “fitted relative affinity”: 0.496 z-score.
For `TCACATATACACTGTGTATCTGTGCTA`, “fitted relative affinity” read 0.24 z-score.
`CTTTCTATCTCTGTTTTTGCGTGCTAG` — result for “fitted relative affinity”: 2.38 z-score.
Under “fitted relative affinity”, `GACGGAATGGGTATCGGGACGTGCTAG` is recorded as 0.763 z-score.

Further values, each from its own experiment
The fold induction of `PhoQ, residues 284 288 289 292 302 303 AGGCYF` is reported as 15.6 (PhoP, residues 12 14 15 18 19 NMSFL (Escherichia coli, UniProt P23836); Sort-seq, measured: YFP reporter; E. coli; PhoQ-PhoP variant library, with: 10 µM Mg2+; baseline: high Mg2+ state, higher = stronger signaling).

Excerpt of the above (sample 2):
`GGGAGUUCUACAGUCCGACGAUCACACCCCUCCCCGCACUGUGAAGUUCCCCUGACCGCCCUCCUGGUUCACAAAGAGCAUUAAGAAAGCUGCGGUGGUCUGAGCAACAUAGCCCAAAGGGCUGAGCCUCCUGUGGAAUUCUCGGGUGCCAA` — result for “RBNS enrichment (R)”: 0.474.
`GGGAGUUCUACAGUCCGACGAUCAGAUGGAAUUACAGCAAAAUGUGCUCAAUGUAUGUGUCUGCUCACAACACUGGGAGAUGUGUUUGCCAGUAAGUUGCUCAUCACAAGAGCACCAGACUUGGGGGGUGUAAUGGAAUUCUCGGGUGCCAA`: “RBNS enrichment (R)” 0.453.
`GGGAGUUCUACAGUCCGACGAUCAAAGCACUGAUCGUUCUCCAGUUCUUGCCAAGAUCAUCCCAAGUUGGAUAUCAUCAAAACUAUCUUUGUGCUCCCAAAACUUGGUGUUCAUGUGUAUCCCUUUAAGUUGUUGGAAUUCUCGGGUGCCAA` — result for “RBNS enrichment (R)”: 0.443.
